Assay results collected from several papers.
A part holds a random share of what one study measured.

Sample 1
Target: RNA binding protein fox-1 homolog 2, RRM domain, GST-SBP tag (RBFOX2, Homo sapiens, UniProt O43251-10, residues 100-194)
Technique: RNA Bind-n-Seq
Form: RNA
Matrix: in vitro
Tested at: 365 nM
Setting: natural RNA segment, single round, ends assumed
Baseline: no-protein control
Reading: higher = stronger binding
Endpoint: RBNS enrichment (R)
All sequences stand within: GGGAGUUCUACAGUCCGACGAUC … UGGAAUUCUCGGGUGCCAA
Construct (chain): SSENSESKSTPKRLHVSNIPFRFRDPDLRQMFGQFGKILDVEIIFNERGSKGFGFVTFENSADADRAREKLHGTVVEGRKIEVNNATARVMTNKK
GAGGAACAAGACCUGAGCGCUGUCCCUGGGGAACCUCACUAGUCAUUCCUUUCCCUUGAUGGGGCUUGUGAUGGACCCAAGGUCUACCUCAGACUUGAGUCUGUUUCCCC: 0.256
CUUGCAGGAGAAGCAAUGGAGUCAGUGUGGUGUGGGGAGACCUACUUUUUAACCUGGGCUUAGCCACCUGCUCUGUGAUCCAGGGCUUACCUUCUUUGGGCCUCGGCCUC: 0.229
UUCAGGCGUGUUUUCUGUGAAUGUUGGAUGAUGAAUUUUUGUCUCUUCUGGUGGAGCUGUGCCUGGCCCUGUAGGCCCAGGGUUGGCUGGAAGGUGACAUCUGUGUUUCG: 0.536
UUCCUUCCGGUCUACAAGAGCUCUCAAGGCUGGGUCUGCCACCACUCUGCUUUGCCCAAGUGUGACAGCACUGGGGAGGAGAGACAGGAUAAAGGGCAGAUGUCAGCAAU: 0.268
AUCAGAUGGAUGGAUUUGUGUUUGUCUCAGAGCAGCAUAUACAUGCAGUCAGUAAGCAUGUUUGAAAGGACCAUAAAAACCAGAGAAAUGCUGAUGGGAACUUGGAAGUU: 0.791
CCCGGUCCCCACACACUUCGCACCCAAUGUGGGCUGGGGGGCUGCUCAGACUCCUGUGAAGGCACAGCUACAGUUGUGGCCUGAAGGAGGCCCAGCUGGGACUGUGUGCU: 0.501
AUGCCUGAUGAAAGCUUUGGGGCCCUCACAGAUGCACAACUCAAGUGCUGAUUCUAUCACUUAUCUACCAGCUCUGUGACCUUGAACAAGCCGCUUAACCUUGCUAAGCC: 0.405
GAGGCUUCUAAUUAGCUGGAAAAGAGUAUUUUUCUAAUACGUUGCAAGGAUUAGCCAAAUCUUCUUAUUGAAGAAAGAAGAAAAGUGAAGAGUGGUUACCUAUACCUAGC: 0.619

Sample 2
Target: Histone acetyltransferase KAT6A, winged helix 2, GST fusion (KAT6A, Homo sapiens, UniProt Q92794, residues 85-181)
Technique: protein binding microarray
Form: double-stranded DNA, one strand shown
Matrix: in vitro
Tested at: not given
Setting: 8-mer, flanks averaged, mean of 2 arrays, mostly near background
Baseline: not given
Reading: higher = stronger binding
Endpoint: E-score
Residues (chain): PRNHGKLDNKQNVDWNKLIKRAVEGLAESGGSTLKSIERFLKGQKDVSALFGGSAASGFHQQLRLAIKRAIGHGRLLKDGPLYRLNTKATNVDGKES
GTAGACTA: -0.202
AGCCTCTA: -0.149
AAGACATC: -0.16
CACCTGAC: -0.152
ATCCTAAT: 0.03
CTTTAAAA: 0.139
CAATAAAA: -0.136
CCTTTATA: -0.156
AATACACA: -0.0363
AGAACCAG: -0.0723
CTCCGGCC: 0.0376
CCACCAGG: 0.044
AGCCGAAG: 0.0682
ATTATGCG: -0.0454
AGACTCAT: -0.332
AAGACGCT: -0.159

Sample 3
Target: PABPC1L2, full length, GST fusion (mouse, UniProt A0ABA7IW68)
Technique: RNAcompete
Form: RNA
Matrix: in vitro
Tested at: 20 nM
Setting: 7-mer, probes averaged, single round
Baseline: mean of 7-mers
Reading: higher = stronger binding
Endpoint: 7-mer Z-score
Target sequence (chain): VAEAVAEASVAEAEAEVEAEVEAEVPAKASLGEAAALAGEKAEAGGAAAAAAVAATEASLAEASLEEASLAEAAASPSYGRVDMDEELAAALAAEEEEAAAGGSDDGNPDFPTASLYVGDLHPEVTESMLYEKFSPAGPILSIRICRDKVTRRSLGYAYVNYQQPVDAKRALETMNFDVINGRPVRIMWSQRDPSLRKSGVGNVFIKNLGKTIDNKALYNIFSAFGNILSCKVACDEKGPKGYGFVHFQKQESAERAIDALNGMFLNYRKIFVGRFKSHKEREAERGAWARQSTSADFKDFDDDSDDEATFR
CCGGAAA: 0.711
ACUGGUG: 0.0134
GCACGAC: -0.166
GAAGACU: -0.113
AGGCAUC: -0.0609
AAUGGCG: 0.169
CCGUCGG: -0.412
GGGGUUC: 0.122
UACCUUC: -0.273
AUUCAUC: -0.393
GUGGGGG: 0.606
AGCCUAU: -0.186
AACUUCU: -0.117
AUAAAAG: 3.6
UUCACGA: -0.255
GCCAUAC: -0.191

Sample 4
Target: Fragile X messenger ribonucleoprotein 1, C-terminal low-complexity region (Fmr1, Mus musculus, UniProt P35922)
Technique: RNA Bind-n-Seq
Form: RNA
Matrix: in vitro
Tested at: 200 nM
Setting: whole 134-nt RNA, ends assumed
Together with: 150 mM LiCl
Baseline: input library
Reading: higher = stronger binding
Endpoint: log2 enrichment
Each molecule: 7-deaza-guanosine replaces G
All sequences stand within: GGGAGUUCUACAGUCCGACGAUC … UGGAAUUCUCGGGUGUCAAGG
GCAGGAAGUAAAAACAAAUGGAAAUGCUUCGGAUAGAGGCAGGGGUGGGGGUUGCUAAGGAAAGGGUGGGAUGGGAGUGGGUAAAGAGUU: 1.61
AGUCCUGUGCUACACAUCGUAUGUACCGAAUCGGGCCCCGGGCCCCGGGGCCCCGGGAAAGUAUUAUGUUACGCCGUUCGGAUCUGCACU: -0.543
GCAGGAAGUAAAAACAAAUGGAAAUGCUUCGGAUAGUGGCAGGGGUGGGGGUUGCUAAGGAAAGGGAAAGAUGGGAGUGGGUAAAGAGUU: 1.62
UGGGAGGUGGCUUUUGUUUAUUUUUUUAGCUCAUUUCCAGGGGUGGGAAUUUUUUUUUAAUAUGUGUCAUGAAUAAAGUUGUUUUUGAAA: -0.0571
AAGUCCUGUGCUACACAUCGUAUGUACCGAAUCGGAAAAAGGGAAAAAGGAAAAAGGAAAGUAUUAUGUUACGCCGUUCGGAUCUGCACU: -0.865
GUCCUGUGCUACACAUCGUAUGUACCGAAUCGGGGAGGGGAAAAAAAGGGGAAAGGGGAAAGUAUUAUGUUACGCCGUUCGGAUCUGCAC: 1.41
ACCAUGCAGGUGGGCAGCUUUGGGAAGUGGGGCAAGGGGGGGAUAGGGAGGGGGGUAACACUUUGGGAACAGGUGGUCCCAGGUCGUUUC: 1.44
ACCAUGCAGGUGGGCAUCUUUGGGAAGUGGGGCAAGGGGGGGAUAGGGAGGCGGGUAACACUUUGGGAACAGGUGGUCCCAGGUCGUUUC: 0.752

Repeated from above (sample 2):
AGAACCAG: -0.0723
ATTATGCG: -0.0454
AAGACGCT: -0.159
CTCCGGCC: 0.0376
CAATAAAA: -0.136
CACCTGAC: -0.152
